Results from different studies.
Numbered parts are unrelated; each lists some results of a single study. Changes are numbered by the printed parent chain.

Block 1 — method: RNA Bind-n-Seq; form: RNA; medium: in vitro; tested at: not given; reference: input RNA pool; direction: higher = stronger binding; measurement: bound/input enrichment
Target: RING finger protein unkempt homolog, zinc fingers 1-6, GST-SBP tag (UNK, Homo sapiens, UniProt Q9C0B0, residues 30-357)
Chain of UniProt Q9C0B0 (30-357, looked up): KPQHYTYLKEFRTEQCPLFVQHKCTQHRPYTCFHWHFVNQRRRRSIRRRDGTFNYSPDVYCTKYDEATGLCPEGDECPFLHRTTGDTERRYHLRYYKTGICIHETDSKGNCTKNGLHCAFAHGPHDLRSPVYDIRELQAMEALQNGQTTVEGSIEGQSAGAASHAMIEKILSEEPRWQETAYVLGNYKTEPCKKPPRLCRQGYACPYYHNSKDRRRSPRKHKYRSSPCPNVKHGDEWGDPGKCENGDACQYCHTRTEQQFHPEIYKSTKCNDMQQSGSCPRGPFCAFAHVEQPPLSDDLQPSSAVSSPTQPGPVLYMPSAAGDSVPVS
Setting: RNA with constant flanks, human and mouse sites, ends assumed
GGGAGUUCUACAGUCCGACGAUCAAAGAAGAGGCCAAAACUUCAAAUCCAACUUCUUCACUAACUUCUCUUUCUGUGGCACCAACAUUCAGCCCAAAUAUAACUCUGGGACCCACCUAUUUAACCACUGUCAAUUCUUCAGACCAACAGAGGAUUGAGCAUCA: 0.28 ratio
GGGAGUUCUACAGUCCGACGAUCCACUCCUCGAAGCAGGGUCACCUUUUAGGAAAGGUCCCCCACAGCUACCUCCAGUAGCUUCUUAGUUCGUGGUAGGCUUCAUGAGCCCCUCCCUGCUCUGUGCUGGGAUUUUGACUUCUGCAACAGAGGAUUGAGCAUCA: 0.231 ratio
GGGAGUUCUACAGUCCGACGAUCCAUGCUCUUGCACUUUACAGAACUGAUGAUUACUUAGAUCAACCGUGUUAUGAAACCAUUAAUAGAAUUAAACUUUACAGUGAAUCUUUGGCAAGAUAUGGCAAAAGCCCAUACCUUUAUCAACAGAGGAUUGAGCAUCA: 7.38 ratio
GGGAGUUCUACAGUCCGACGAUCGGGACAGGGGUAGUGUUCCUGGUUUUGGUGGGGUUUGCCUUUAGUUUAAUUUUCCUUUUCUAGCUUCCCUUUGCCGGCUGGUGCGUACGUUGUAGUCCCCCGAGGCCAUGUCAGGAGACGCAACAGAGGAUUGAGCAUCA: 7.25 ratio
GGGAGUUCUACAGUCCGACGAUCUCUGCAAUAGUUGGAUUUAUCUACGGGUACGUGGCUGAACAGUUCGGGUGGACUGUCUAUAUAGUUAUGGCCGGAUUUGCUUUUUCAUGUUUGCUGACACUUCCUCCAUGGCCCAUCUAUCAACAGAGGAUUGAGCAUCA: 0.315 ratio
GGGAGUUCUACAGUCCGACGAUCGGAGCCAUUGAUGCUGUUCCUGUUGAUGAAAAUCUUUUCACUGGAGAGGAUUUGGAUGAACUAGAAGAAGAAUUAAAUACACUUGAUUUAGAAGAAUGACACCAAACACAUCGCUGAAAACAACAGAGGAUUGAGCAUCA: 1.71 ratio
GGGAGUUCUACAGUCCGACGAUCGUUUUUAGCUGUCACAGUGCUGAGAGUCUUGAUAGUGUCAGUGUGUCCACACCUGAUCCUUUACCCGAAAAAAUAAGAGGAUAUCAAGAGGCUGAAAGAAUAUUUUCAGAAGCAUAGACUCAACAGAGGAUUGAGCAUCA: 0.3 ratio
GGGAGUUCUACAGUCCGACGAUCGACAAAACGCACCCUACCUGGAAAGUACUUGGAGAAGAUCGCAGAGCAGAUGCAUUCCCAUAGUAUCAAUGCCCUUCUGAUCAUUGGAGGAUUUGAGCCAGUGGUAAUAUGAGAGAAUGACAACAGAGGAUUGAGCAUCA: 0.348 ratio
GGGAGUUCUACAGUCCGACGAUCUAUGAAUGUCCAGAUCUGUGUUUCCCUGCCCUCCCAGACUCUGGCCAGUUGGAAGUGUCUCGUUUUUGUUCAUCUCUCAUUUCUGGUGCAGUGACUGAGACCCUGCCACAUCUAUGCUCUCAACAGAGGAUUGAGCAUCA: 0.238 ratio
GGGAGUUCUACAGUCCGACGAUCCCUCAUGAACUUCAGAAACUACAGUGUCCCAAGAUAAAGACUGUGGACAUCAGCCUGAUUCUUUCUGAGGCGAUUCGGAGAAUCCACAAUGGAGAGUCUAUGGCUUACCUCUUCCGGAACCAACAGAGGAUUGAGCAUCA: 0.102 ratio
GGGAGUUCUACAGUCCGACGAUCGAUUGUCUUCAGUCCUGGGAACCUUGGCCUCGACAGCCCUAUUUAUGCAUACAAGUAAUAUAUAGAUGAAUGUCUCAAGUAAAUAUGGCUUAUGGAUGGUAGUGGAUAAUUUGAUGAGAACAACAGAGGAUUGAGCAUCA: 0.561 ratio

Block 2 — method: universal PBM; form: double-stranded DNA, one strand shown; medium: in vitro; tested at: not given; direction: higher = stronger binding; measurement: E-score
Target: Sal-like protein 4, full length isoform B (SALL4, Homo sapiens, UniProt Q9UJQ4-2, residues 1-616)
Setting: 8-mer, flanks averaged, mean of replicates
Construct (chain): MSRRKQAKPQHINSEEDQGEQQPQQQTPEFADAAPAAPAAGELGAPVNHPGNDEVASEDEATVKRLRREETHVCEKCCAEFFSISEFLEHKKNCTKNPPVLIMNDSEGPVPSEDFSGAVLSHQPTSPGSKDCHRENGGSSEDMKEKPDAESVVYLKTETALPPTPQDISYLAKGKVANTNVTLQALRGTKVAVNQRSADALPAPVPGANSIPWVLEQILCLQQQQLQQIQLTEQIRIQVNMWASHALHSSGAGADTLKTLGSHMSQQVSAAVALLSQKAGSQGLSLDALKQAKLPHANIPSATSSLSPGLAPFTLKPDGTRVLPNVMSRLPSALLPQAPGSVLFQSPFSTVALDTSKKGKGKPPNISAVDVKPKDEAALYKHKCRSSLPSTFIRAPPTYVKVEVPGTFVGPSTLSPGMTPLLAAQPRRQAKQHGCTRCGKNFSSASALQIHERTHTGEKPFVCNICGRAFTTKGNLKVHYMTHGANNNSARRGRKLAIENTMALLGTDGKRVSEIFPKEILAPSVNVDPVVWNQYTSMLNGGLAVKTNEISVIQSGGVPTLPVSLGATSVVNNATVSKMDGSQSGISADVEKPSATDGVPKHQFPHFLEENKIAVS
CATGAGTC: 0.0942
AGAACCCA: -0.144
CAGCGTGC: -0.291
GCCGATGA: -0.23
GAATTAAC: 0.131
CGCGGAAC: -0.252
AGTCAGGA: -0.147
AGAGAAAT: 0.148
CGTACTGC: 0.0465
CCGCAAAC: -0.0907
GATGTGCA: 0.00908
CCCCGAAC: -0.228
GGCATCCA: -0.0971
AGGTGTTG: -0.0206
CGCTGGCA: -0.233
CTCAACGC: -0.316
GATAATCA: 0.218
AGTGCTAA: -0.0319
GATCAAAA: 0.181
ATCCCGCG: -0.00563
CAGCCAGA: -0.16
CGCCTTCC: -0.235
CTACGACA: 0.0722
CGCGAGCG: -0.269
ACTAGAGC: -0.177

Block 3 — method: RNA Bind-n-Seq; form: RNA; medium: in vitro; tested at: 365 nM; reference: no-protein control; direction: higher = stronger binding; measurement: RBNS enrichment (R)
Target: RNA binding protein fox-1 homolog 2, RRM domain, GST-SBP tag (RBFOX2, Homo sapiens, UniProt O43251-10, residues 100-194)
Setting: natural RNA segment, single round, ends assumed
Residues (chain): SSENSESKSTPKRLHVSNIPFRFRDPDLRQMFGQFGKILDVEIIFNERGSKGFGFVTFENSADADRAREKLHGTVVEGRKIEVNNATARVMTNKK
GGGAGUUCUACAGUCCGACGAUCCUUCAAAUAUUCCAGUAAGUUUUGAAAUAAUGAAUGCAUUGAAAAUAGCAUUGUUGGAAUUUAUUCCCUUCUGUUUUAAAGGAGGUAUUUUGGAAAUUGAAAAACUUAAUUGGAAUUCUCGGGUGCCAA: 2.05
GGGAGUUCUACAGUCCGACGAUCAUUUGUGAGGAGGAGCCGAGGCCCCAGCUUCAUCCAGCUUCAACCAAUGCCUGGACCUGUCCACCUGAGAGGCCCCUGGGGCCUCCCCAGCUGCUGGCCAGACCCUGGCGUGGAAUUCUCGGGUGCCAA: 0.145
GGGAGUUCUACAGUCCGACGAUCAAACAACUCUGUAGAGCUCUCUGCACCCUGUACCCUUUUCACCUUUUGUAUUUAAUUUUAAAGUCAGUGUACUGCAAGGAGGCUGGAUGCAAGAUAGAUACUAUAUUAAAUGGAAUUCUCGGGUGCCAA: 0.281
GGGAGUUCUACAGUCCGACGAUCGGUCUGGGGUAACAGCCUCUUCCCAGCACCCACCUGCCAGCCCUGCUUGCCUGGCCCUGUCCUGGACCCAGCUUUGCUAGGUCUCCUUGGAAACCAGGCCUGGGCCUCAAUGGAAUUCUCGGGUGCCAA: 0.683
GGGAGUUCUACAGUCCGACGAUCGCUGCCUCGUCCUGACCCACGGAAGGUGGCAGAGUGCUCCCUGCCUGGCCCCUGGCCCCUGGCCCCUUGCCUGGCUGGCUUGACAGCCUGAGCACAAGAAGCAGUAAGUUUGGAAUUCUCGGGUGCCAA: 0.369
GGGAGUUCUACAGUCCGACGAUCGUCAUUCACGUGUCCUUUCAUGUGCUUGCUUUAGGGAAACAGUCCUUCACAAGUCUGCCUUUCACCUGUGUCUGCUUCAGCAAAAUGUUCUUUCACAUUUGCCCCAGCAAUGGAAUUCUCGGGUGCCAA: 0.213
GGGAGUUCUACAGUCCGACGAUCUGGUCGUACACUGCUCAUUGUGCCACAGGUGUGACUGGAAAGCAUGAUAUUCUAGGGUUGGUUUGUAGAUUCAAAUAAUCCAGAAAUAUACCUAAUAAGAUUGAGUGAAAUGGAAUUCUCGGGUGCCAA: 9.03
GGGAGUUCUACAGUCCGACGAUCUCACUUUUACAUUAUAAUAAAAAGUUUGGAAAAGUUACUUUUCUUGUUUUAUUUUUACAUCAUAUUCAUUCUGUCAGAAGUAAGCAUGAAAUUACUCAGUAUCCAUGUCAUGGAAUUCUCGGGUGCCAA: 1.04
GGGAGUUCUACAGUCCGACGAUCUGGCAAAUUUUUAUUUUAAAAGUAUUCUUACAGAAGAGUUCCAUUUAAGAAUGUUCACUUAUAGGACCAAAAUAUAAAUAAAAACUUUCAAAUAUGUUUGAUUUUAAAUUUGGAAUUCUCGGGUGCCAA: 0.676
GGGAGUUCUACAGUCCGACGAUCAUAAAAUUAAGGACACUGAAAAUUCUUAUGCUUGAUGAAAAACUUAAGGCUAGCCUAGAAGGGCCAAACAUGUCCUUAUUGACAAAGCUGGUCUUUGUCGCCUAAUUAGGUGGAAUUCUCGGGUGCCAA: 0.356
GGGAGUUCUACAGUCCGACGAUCCUGGGCUUGGAUUUGCAUUACAUUGACCCCAGCCCUGCAGUGGAACCUAAUAAAAGCGCCUGAAGCACUGCCUGGUCCUGGUGUGUCCUUCCUGCGCACUCAACUGUUGUUGGAAUUCUCGGGUGCCAA: 1.36
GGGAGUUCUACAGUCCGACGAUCUGAAAAUUACACAUUUUAUAAUUUUUAGAUGAGAAAAUACCACUAGCAGAAUAGCUUUGUGCUAUUCCAGUAUAAGAUGAACUGUAAUAAUUUUUGACUUCCCUAUUUCAUGGAAUUCUCGGGUGCCAA: 0.357

Block 4 — method: DHFR PCA, deep sequencing; medium: yeast; added: (+)-ABA 0.032 µM; reference: wild-type fitted maximum; direction: higher = stronger binding; measurement: relative binding score
Target: ABI1, truncated, D143A, DHFR fusion (Arabidopsis thaliana)
Setting: methotrexate growth selection, single substitutions
Starting sequence: PYL1, truncated, DHFR fusion (Arabidopsis thaliana); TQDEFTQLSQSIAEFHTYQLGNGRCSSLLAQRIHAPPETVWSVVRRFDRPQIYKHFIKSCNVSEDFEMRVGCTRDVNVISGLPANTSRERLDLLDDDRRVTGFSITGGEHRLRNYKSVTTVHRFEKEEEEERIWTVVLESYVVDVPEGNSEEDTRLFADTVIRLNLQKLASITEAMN
I162G: 4.66%
V40A: -3.68%
W134S: 30.3%
R132W: 4.84%
I162F: -15.7%
D159P: -9.56%
V121F: 1.81%
L156P: 1.53%
P146T: 15.1%
W41H: -1.63%
V121G: 2.27%
V136Y: 3.36%
G81K: -1.95%
V43N: -1.18%
C25P: 0.77%
S171E: 43.9%

For quick reference, copied from above (block 4):
P146T: 15.1%
I162G: 4.66%
G81K: -1.95%
W41H: -1.63%
S171E: 43.9%
L156P: 1.53%
V121G: 2.27%
R132W: 4.84%
D159P: -9.56%
W134S: 30.3%
V43N: -1.18%
